Measurements gathered from unrelated publications.
UniProt Q5S007, sequence (whole entry, looked up): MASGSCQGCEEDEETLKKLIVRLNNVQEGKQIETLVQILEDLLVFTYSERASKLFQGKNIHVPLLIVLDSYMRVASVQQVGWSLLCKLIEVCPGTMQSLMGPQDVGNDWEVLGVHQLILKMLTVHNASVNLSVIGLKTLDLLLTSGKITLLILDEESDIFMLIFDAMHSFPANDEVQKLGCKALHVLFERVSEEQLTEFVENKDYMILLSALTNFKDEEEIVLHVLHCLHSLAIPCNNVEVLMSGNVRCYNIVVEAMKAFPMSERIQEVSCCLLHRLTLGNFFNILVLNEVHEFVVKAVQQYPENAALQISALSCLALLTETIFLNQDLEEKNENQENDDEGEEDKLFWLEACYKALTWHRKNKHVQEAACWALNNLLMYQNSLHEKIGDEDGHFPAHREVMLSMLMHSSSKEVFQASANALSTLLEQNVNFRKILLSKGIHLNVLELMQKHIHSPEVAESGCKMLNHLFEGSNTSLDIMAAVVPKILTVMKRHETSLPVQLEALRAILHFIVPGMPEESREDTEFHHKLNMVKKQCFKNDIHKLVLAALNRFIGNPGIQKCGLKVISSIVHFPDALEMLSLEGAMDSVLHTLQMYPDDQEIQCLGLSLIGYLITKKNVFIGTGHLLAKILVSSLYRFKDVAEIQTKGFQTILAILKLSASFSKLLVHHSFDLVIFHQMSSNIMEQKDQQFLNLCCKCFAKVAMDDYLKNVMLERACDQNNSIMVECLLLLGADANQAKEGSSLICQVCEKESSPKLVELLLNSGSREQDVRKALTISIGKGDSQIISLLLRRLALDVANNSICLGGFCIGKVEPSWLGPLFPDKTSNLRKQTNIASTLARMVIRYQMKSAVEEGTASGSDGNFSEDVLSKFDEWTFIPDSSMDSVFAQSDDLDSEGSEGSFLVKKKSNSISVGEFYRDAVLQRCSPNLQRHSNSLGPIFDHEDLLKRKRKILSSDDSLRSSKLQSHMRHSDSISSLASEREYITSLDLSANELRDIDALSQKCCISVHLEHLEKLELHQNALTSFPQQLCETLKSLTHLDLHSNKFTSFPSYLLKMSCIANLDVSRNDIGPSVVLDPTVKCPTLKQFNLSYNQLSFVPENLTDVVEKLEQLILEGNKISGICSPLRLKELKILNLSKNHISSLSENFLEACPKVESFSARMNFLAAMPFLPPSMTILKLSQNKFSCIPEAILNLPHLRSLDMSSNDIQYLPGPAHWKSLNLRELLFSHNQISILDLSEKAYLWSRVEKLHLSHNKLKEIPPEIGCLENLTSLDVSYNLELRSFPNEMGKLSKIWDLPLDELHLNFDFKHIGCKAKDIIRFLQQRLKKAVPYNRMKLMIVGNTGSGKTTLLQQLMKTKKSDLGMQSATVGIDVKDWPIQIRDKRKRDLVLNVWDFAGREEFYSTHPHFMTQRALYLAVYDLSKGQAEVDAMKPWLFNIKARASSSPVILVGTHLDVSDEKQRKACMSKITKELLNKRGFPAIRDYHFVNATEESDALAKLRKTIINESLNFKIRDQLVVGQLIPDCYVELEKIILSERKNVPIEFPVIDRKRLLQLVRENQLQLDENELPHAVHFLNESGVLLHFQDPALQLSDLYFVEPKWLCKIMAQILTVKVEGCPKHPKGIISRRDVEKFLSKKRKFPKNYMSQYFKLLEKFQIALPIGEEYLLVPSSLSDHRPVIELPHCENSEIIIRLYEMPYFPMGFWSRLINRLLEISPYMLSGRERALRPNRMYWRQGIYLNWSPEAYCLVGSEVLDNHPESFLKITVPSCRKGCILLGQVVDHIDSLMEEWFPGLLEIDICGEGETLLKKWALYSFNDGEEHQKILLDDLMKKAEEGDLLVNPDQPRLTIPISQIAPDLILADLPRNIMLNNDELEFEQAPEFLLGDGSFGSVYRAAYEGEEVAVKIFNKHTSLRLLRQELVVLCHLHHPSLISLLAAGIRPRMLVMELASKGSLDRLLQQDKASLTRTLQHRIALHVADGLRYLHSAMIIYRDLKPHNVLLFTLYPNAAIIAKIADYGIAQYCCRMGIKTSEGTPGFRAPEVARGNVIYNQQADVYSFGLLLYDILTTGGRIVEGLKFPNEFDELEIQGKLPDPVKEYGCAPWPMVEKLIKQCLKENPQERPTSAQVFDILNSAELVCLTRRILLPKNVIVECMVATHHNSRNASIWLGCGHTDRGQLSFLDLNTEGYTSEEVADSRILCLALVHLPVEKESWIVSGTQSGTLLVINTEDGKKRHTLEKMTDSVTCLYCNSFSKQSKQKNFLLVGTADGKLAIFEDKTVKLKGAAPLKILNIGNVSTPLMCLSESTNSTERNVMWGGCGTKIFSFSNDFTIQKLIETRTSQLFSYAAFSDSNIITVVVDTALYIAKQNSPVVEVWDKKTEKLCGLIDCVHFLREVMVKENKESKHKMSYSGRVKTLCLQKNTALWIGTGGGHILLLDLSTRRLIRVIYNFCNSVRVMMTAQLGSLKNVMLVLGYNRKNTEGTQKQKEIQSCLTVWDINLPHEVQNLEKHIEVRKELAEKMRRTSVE
UniProt Q8TF76, sequence (whole entry, looked up): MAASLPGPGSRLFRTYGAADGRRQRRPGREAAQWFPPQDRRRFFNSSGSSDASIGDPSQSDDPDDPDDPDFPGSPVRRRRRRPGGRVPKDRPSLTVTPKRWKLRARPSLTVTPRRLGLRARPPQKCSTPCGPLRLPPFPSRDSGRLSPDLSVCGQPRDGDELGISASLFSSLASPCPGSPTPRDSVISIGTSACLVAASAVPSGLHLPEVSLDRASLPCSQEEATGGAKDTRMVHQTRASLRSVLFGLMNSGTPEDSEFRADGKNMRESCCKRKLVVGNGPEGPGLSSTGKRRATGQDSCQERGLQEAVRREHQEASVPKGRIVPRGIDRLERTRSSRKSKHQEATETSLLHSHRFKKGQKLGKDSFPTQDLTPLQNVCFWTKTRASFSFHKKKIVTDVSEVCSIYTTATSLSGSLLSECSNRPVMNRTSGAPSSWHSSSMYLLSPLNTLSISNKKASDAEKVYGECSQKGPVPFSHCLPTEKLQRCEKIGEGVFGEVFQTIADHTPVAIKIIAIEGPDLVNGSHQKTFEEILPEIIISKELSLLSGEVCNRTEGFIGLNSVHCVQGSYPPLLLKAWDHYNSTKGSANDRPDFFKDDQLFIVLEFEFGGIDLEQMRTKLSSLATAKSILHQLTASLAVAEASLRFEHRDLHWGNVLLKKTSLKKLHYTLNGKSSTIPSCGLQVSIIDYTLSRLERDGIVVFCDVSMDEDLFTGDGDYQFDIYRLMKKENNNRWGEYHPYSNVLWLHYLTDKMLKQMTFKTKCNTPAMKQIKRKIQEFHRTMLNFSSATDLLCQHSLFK
UniProt P31751, sequence (whole entry, looked up): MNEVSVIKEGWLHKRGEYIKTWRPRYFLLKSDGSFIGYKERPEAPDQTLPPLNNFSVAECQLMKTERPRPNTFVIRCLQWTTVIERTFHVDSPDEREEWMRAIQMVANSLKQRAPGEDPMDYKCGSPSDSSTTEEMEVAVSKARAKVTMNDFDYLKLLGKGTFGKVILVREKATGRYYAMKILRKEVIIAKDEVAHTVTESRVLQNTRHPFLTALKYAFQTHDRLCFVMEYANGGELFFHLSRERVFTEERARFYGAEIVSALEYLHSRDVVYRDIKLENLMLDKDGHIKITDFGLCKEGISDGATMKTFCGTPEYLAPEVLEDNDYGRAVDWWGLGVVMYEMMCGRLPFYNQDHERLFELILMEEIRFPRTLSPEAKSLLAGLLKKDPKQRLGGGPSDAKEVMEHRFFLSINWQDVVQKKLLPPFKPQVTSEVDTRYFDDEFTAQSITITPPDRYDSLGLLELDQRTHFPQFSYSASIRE
UniProt Q8IWQ3, sequence (whole entry, looked up): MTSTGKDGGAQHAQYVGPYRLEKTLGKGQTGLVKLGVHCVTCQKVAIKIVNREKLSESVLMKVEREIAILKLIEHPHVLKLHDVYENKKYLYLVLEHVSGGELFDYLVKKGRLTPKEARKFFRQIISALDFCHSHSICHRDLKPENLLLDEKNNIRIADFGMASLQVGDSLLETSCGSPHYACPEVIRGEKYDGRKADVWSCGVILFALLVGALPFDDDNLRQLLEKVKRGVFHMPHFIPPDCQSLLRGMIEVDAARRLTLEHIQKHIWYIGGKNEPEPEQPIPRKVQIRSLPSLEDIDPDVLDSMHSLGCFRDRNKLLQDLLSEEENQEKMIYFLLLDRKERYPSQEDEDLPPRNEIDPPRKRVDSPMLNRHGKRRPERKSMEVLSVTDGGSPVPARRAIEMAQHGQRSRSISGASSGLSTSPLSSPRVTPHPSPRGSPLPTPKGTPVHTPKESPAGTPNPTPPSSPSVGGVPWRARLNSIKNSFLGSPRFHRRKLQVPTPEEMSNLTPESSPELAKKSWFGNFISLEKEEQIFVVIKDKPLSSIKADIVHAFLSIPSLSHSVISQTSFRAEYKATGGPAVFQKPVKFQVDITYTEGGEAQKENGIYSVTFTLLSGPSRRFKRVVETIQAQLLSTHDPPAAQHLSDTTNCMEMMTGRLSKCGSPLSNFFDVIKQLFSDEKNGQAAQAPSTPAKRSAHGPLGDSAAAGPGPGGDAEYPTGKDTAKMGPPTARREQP

Compound | target or system | assay | conditions | quantity | value
OCc1ccc(N2CCc3cccc(F)c3C2)cc1Cl | RBE | cell growth or viability, ATP luminescence | 46 µM, 72 h | inhibition | 87%
Cc1cc(=O)oc2ccc(-c3cc(-c4ccccc4)nc(N)n3)c(O)c12 | KB | cell growth or viability, MTT | 32 µg/mL, 72 h | inhibition | 9%
CCN(Cc1c(Cl)cccc1Cl)c1ccc(CO)c(Cl)c1 | RBE | cell growth or viability, ATP luminescence | 46 µM, 72 h | inhibition | 59%
C[C@@H](Oc1cc(-c2cnn(C3CCNCC3)c2)cnc1N)c1c(Cl)ccc(F)c1Cl | NCI-H3122 | cell growth or viability, MTT | 0.0016 µg/mL, 72 h | inhibition | 12.7%
OCc1ccc(-c2n[nH]c3ccccc23)o1 | RBE | cell growth or viability, ATP luminescence | 46 µM, 72 h | inhibition | 62%
C=C(C)[C@@H]1CC[C@@H](C)C[C@H]1OCc1ccc(OC)cc1 | A2780 | cell growth or viability, MTT | 30 µM, 72 h | inhibition | 28.4%
Cc1cc(=O)oc2ccc(-c3cc(-c4ccc(Br)cc4)nc(N)n3)c(O)c12 | KB | cell growth or viability, MTT | 128 µg/mL, 72 h | inhibition | 23%
Cn1nc(-c2ccc(CO)o2)c2ccccc21 | RBE | cell growth or viability, ATP luminescence | 46 µM, 72 h | inhibition | 56%
Cc1cc(=O)oc2ccc(-c3cc(-c4cccs4)nc(N)n3)c(O)c12 | KB | cell growth or viability, MTT | 8 µg/mL, 72 h | inhibition | 0%
CCC(=CCc1c(O)cc2c(c1O)C(=O)C[C@@H](c1ccc(O)cc1)O2)CC | HeLa | cell growth or viability, MTT | 25 µM, 48 h | inhibition | 55.7%
COc1ccc(-c2cc(-c3ccc4oc(=O)cc(C)c4c3O)nc(N)n2)cc1 | KB | cell growth or viability, MTT | 2 µg/mL, 72 h | inhibition | 0%
C[C@@H]1CC[C@@H]([C@@](O)(CNCc2cccc3ccccc23)COCc2ccccc2)[C@H](OCc2ccccc2)C1 | HeLa | cell growth or viability, MTT | 30 µM, 72 h | inhibition | 99%
O=S(=O)(Nc1nccs1)c1ccc(N=NN(O)c2ccccc2)cc1 | – | ABTS scavenging | 120 µg/mL | inhibition | 64.2%
OCc1ccc(-c2nn(Cc3ccccc3)c3c2CCCC3)o1 | RBE | cell growth or viability, ATP luminescence | 46 µM, 72 h | inhibition | 62%
CN(C)C(=O)c1cn([C@@]23CCC[C@@](C)(CC[C@@H]4[C@@H]2CC4(C)C)C3)nn1 | HT-29 | cell growth or viability, CCK-8 | 50 µM | inhibition | 45.8%
COc1cccc(CNC[C@@](C)(O)[C@@H]2CC[C@@H](C)C[C@H]2OCc2ccccc2)c1 | HeLa | cell growth or viability, MTT | 10 µM, 72 h | inhibition | 65.3%
CN(O)N=Nc1ccc(S(=O)(=O)Nc2nccs2)cc1 | – | ABTS scavenging | 180 µg/mL | inhibition | 84.6%
Cc1cc([C@@H](C)Nc2ccccc2C(=O)O)c2nc(N3CCC(F)(F)CC3)c(C#N)c(=O)n2c1 | AKT2 (Homo sapiens, UniProt P31751) | binding, competition with immobilised ligand | 1 µM | remaining binding | 96%
CCCCC(=O)Nc1ccc(-c2ccc3ncn(CCC)c(=O)c3c2)cn1 | KIT (Homo sapiens, UniProt P10721, D816V) | binding, competition with immobilised ligand | 0.5 µM | remaining binding | 100%

Compound | target or system | assay | conditions | quantity | value
COc1ccc(-c2cn([C@@]34CCC[C@@](C)(CC[C@@H]5[C@@H]3CC5(C)C)C4)nn2)cc1 | HT-29 | cell growth or viability, CCK-8 | 10 µM | inhibition | < 50%
C[C@@H]1CC[C@@H]([C@@](O)(CNCc2ccccc2)COCc2ccccc2)[C@H](OCc2ccccc2)C1 | A2780 | cell growth or viability, MTT | 30 µM, 72 h | inhibition | 99.1%
CCC(=CCc1c(O)cc2c(c1O)C(=O)C[C@@H](c1ccccc1O)O2)CC | HeLa | cell growth or viability, MTT | 1.875 µM, 48 h | inhibition | -3.59%
C[C@@H]1CC[C@@H]([C@](C)(O)CNCc2ccccc2F)[C@H](OCc2ccccc2)C1 | HeLa | cell growth or viability, MTT | 10 µM, 72 h | inhibition | 63.7%
COc1ncccc1Cn1nc(-c2ccc(CO)o2)c2ccccc21 | RBE | cell growth or viability, ATP luminescence | 46 µM, 72 h | inhibition | 50%
COc1cc(-c2cncc3c2CN(C)Cc2cc(N4CCNCC4)ccc2-3)cc(OC)c1OC | BRSK2 (Homo sapiens, UniProt Q8IWQ3) | enzyme activity, inhibitor | 1 µM | remaining activity | 118%
CNc1ncc2c(/C=C/C(=O)N3CCC(OC)CC3)nn(Cc3cccc(C(F)(F)F)c3)c2n1 | HASPIN (Homo sapiens, UniProt Q8TF76) | enzyme activity, inhibitor, radiometric | 1 µM | remaining activity | 90%
C[C@@H]1CC[C@@H]([C@](O)(CNCc2ccccc2)COCc2ccc(F)cc2)[C@H](OCc2ccc(F)cc2)C1 | A2780 | cell growth or viability, MTT | 30 µM, 72 h | inhibition | 97.3%
CC1(C)C[C@H]2[C@H]1CC[C@]1(C)CCC[C@@]2(n2cc(C(=O)N3CCNCC3)nn2)C1 | HT-29 | cell growth or viability, CCK-8 | 50 µM | inhibition | 98.5%
O=S(=O)(c1ccccc1)n1nc(-c2ccc(CO)o2)c2ccccc21 | RBE | cell growth or viability, ATP luminescence | 46 µM, 72 h | inhibition | 6%
C[C@@H]1CC[C@@H]([C@](C)(O)CNCc2ccccc2)[C@H](OCc2ccccc2)C1 | HeLa | cell growth or viability, MTT | 30 µM, 72 h | inhibition | 98.1%
CC1(C)C[C@H]2[C@H]1CC[C@]1(C)CCC[C@@]2(NS(C)(=O)=O)C1 | HT-29 | cell growth or viability, CCK-8 | 50 µM | inhibition | 79.8%
Cc1cc(=O)oc2ccc(-c3cc(-c4ccc(Cl)cc4)nc(N)n3)c(O)c12 | KB | cell growth or viability, MTT | 2 µg/mL, 72 h | inhibition | 37%
CC1(C)C[C@H]2[C@H]1CC[C@]1(C)CCC[C@@]2(n2cc(C(=O)Nc3ccc(Cl)cc3)nn2)C1 | HT-29 | cell growth or viability, CCK-8 | 10 µM | inhibition | < 50%
C=CC(=O)N1CCC(COCC(=O)N2CCN(c3nc(-c4cnc(N)nc4C(F)F)nc(N4CCOC[C@@H]4C)n3)CC2)CC1 | LRRK2 (Homo sapiens, UniProt Q5S007) | binding, competition with immobilised ligand | 1 µM | remaining binding | 89%
Cc1ccc(-c2cc(-c3ccc4oc(=O)cc(C)c4c3O)nc(N)n2)cc1 | KB | cell growth or viability, MTT | 128 µg/mL, 72 h | inhibition | 25%
O=C(c1ccccc1)n1nc(-c2ccc(CO)o2)c2ccccc21 | RBE | cell growth or viability, ATP luminescence | 46 µM, 72 h | inhibition | 58%
Cc1cc(=O)oc2ccc(-c3cc(-c4cccc([N+](=O)[O-])c4)nc(N)n3)c(O)c12 | KB | cell growth or viability, MTT | 8 µg/mL, 72 h | inhibition | 20.5%
Cc1cc(Nc2ncc(Cl)c(Nc3ccccc3S(=O)(=O)C(C)C)n2)c(OC(C)C)cc1C1CCNCC1 | KARPAS-299 | cell growth or viability, MTT | 1.66667 µg/mL, 72 h | inhibition | 76.4%

Some of these lines once more:
Compound | target or system | assay | conditions | quantity | value
CC1(C)C[C@H]2[C@H]1CC[C@]1(C)CCC[C@@]2(n2cc(C(=O)Nc3ccc(Cl)cc3)nn2)C1 | HT-29 | cell growth or viability, CCK-8 | 10 µM | inhibition | < 50%
C=CC(=O)N1CCC(COCC(=O)N2CCN(c3nc(-c4cnc(N)nc4C(F)F)nc(N4CCOC[C@@H]4C)n3)CC2)CC1 | LRRK2 (Homo sapiens, UniProt Q5S007) | binding, competition with immobilised ligand | 1 µM | remaining binding | 89%
Cc1ccc(-c2cc(-c3ccc4oc(=O)cc(C)c4c3O)nc(N)n2)cc1 | KB | cell growth or viability, MTT | 128 µg/mL, 72 h | inhibition | 25%
